# Measurements collected from several papers.
# Lines come from different studies, so protocols differ. ± marks the error that the study gave.
Compound,sample,concentration,time,pH,notes,intrinsic clearance
C=CC(=O)N1CC2(CCN(c3nc4c(c(-c5c(C)ccc6[nH]ncc56)c3C#N)COC(C)(C)C4)C2)C1,human liver microsomes,,,,,100 µL/min/mg
N=C(CC(O)c1cc2c(F)cc(F)cc2c2cc(C(F)(F)F)ccc12)Nc1ccc(F)c(F)c1 (stereo not drawn),pooled human liver microsomes,1 µM,60 min,pH 7.4,,9.4 µL/min/mg
CCc1nc(N)nc(N)c1OCCCOc1ccccc1CCC(=O)O,mouse liver microsomes,0.5 µM,,,48 mg protein/g liver,< 0.5 mL/min/g liver
C=CC(=O)N1CC2(CCN(c3nc4c(c(-c5c(C)ccc6[nH]ncc56)c3C#N)CCC(C)(C)C4)C2)C1,human liver microsomes,,,,,> 399 µL/min/mg
C[C@@H]1CN(CC(=O)N2CC(C)(C)c3ncc(Cc4ccc(F)cc4)cc32)[C@@H](CN2CCOC[C@H]2C)CN1,"Sprague Dawley rat liver microsomes, male",1 µM,,,,19 µL/min/mg
C#C[C@]1(O)CC[C@H]2[C@@H]3CCc4cc(O)ccc4[C@H]3CC[C@@]21C,human liver microsomes,,,,additional to UGT1A1,119 µL/min/mg
O=C1c2ccccc2CCN1CCCCN1CCN(c2ccccn2)CC1,mouse liver microsomes,0.5 µM,,,,7.7 mL/min/g
O=C1O/C(=C\c2cc(F)ccc2OCCN2CCOCC2)c2cc(Cc3cccc(F)c3)[nH]c(=O)c21,rat liver microsomes,,,,extrapolated in vivo,31.7 mL/min
O=C(c1ccc(F)cc1)C1CCN(CCn2c(=O)[nH]c3ccccc3c2=O)CC1,monkey liver microsomes,,,,,67.8 mL/min/kg
C[C@@H]1CN(CC(=O)N2CC(C)(C)c3nc(CO)c(Cc4ccc(F)cc4)cc32)[C@@H](CN2CCOC[C@H]2C)CN1,human liver microsomes,1 µM,,,,55 ± 19 µL/min/mg
CCOC(=O)C1=C(CN2CCC[C@@H]2C(=O)Nc2ccc(B(O)O)cc2)NC(c2nccs2)=N[C@H]1c1ccc(F)cc1Br,human liver microsomes,1 µM,,pH 7.4,,8.2 µL/min/mg
CCC1=C(CC)/C(=C/NC2CCCCCCC2)N=C1c1ccc(-c2ccc(OC)cc2)[nH]1,human liver microsomes,1 µM,,pH 7.4,,-35.5 µL/min/mg
CCOC(=O)c1ccc(N)cc1,human liver microsomes,,,,,83 µL/min/mg
CCC1=C(CC)/C(=C/NC23C[C@H]4C[C@@H](C2)C[C@@H](C3)C4)N=C1c1ccc(Cl)[nH]1,human liver microsomes,1 µM,,pH 7.4,,-56.9 µL/min/mg
O=C1c2ccccc2CCCN1CCCCN1CCN(c2ccccn2)CC1,mouse liver microsomes,0.5 µM,,,,14.6 mL/min/g
CCC1=C(C)/C(=C/NC23C[C@H]4C[C@@H](C2)C[C@@H](C3)C4)N=C1c1ccc(CC)[nH]1,human liver microsomes,1 µM,,pH 7.4,,-2.35 µL/min/mg
Cc1ccc2c(c1)nc(CCc1cccc3cccnc13)n2-c1ccccc1,rat liver microsomes,1.5 µM,,,,2840 mL/min/kg
CC[C@H](C)C(=O)O[C@H]1C[C@@H](C)C=C2C=C[C@H](C)[C@H](CC[C@@H]3C[C@@H](O)CC(=O)O3)[C@H]21,mouse liver microsomes,1.0 µM,,pH 7.4,,7520 mL/min/kg
O=C(NCCN1CCCC1)c1cc(-c2ccc(CN3CCOCC3)cc2)nc2ccc(F)cc12,rat liver microsomes,,,,,≤ 0.7 mL/min/g
CCn1cc2c(N3CCC(c4ccccn4)C3)nc(-c3ccccn3)nc2n1 (stereo not drawn),mouse liver microsomes,,,,,0 µL/min/mg protein
O=C1O/C(=C\c2cc(F)ccc2OCCN2CC[C@@H](F)C2)c2cc(Cc3cccc(F)c3)[nH]c(=O)c21,rat liver microsomes,,,,,155 mL/min/g protein
CCC1=C(CC)/C(=C/NC2CCCCCCC2)N=C1c1ccc(Cc2ccc(OC)cc2)[nH]1,human liver microsomes,1 µM,,pH 7.4,,-10 µL/min/mg
O=C(Cc1ccc2ccccc2c1)Nc1cc(C2CCC2)[nH]n1,mouse liver S9,,,,,24.7 µL/min/mg protein
Nc1nc(N)c(OCCCOc2ccccc2CCC(=O)O)c(-c2ccccc2)n1,human liver microsomes,,,,39.7 mg protein/g liver,0.43 mL/min/g liver
O=C(O)Cc1ccccc1Nc1c(Cl)cccc1Cl,human liver microsomes,1 µM,,,,150 µL/min/mg
CCc1ccc(C2=N/C(=C\NC3CCCCCCC3)C(C)=C2C)[nH]1,mouse liver microsomes,1 µM,,pH 7.4,,-13.1 µL/min/mg
Nc1nc(N)c(OCCCOc2ccccc2CCC(=O)O)c(C2CCCCC2)n1,mouse liver microsomes,0.5 µM,,,48 mg protein/g liver,< 0.5 mL/min/g liver
O=c1ccc2ccc(O)cc2o1,rat liver microsomes,,,,,573 µL/min/mg protein
Nc1nc(N)c(OCCCOc2ccccc2CCC(=O)O)c(CCCCO)n1,mouse liver microsomes,0.5 µM,,,48 mg protein/g liver,< 0.5 mL/min/g liver
CCOc1ccc2ccc(=O)oc2c1,human hepatocytes,,,,scaled to liver,205 mL/min/kg
CCC1=C(CC)/C(=C/NC2CCCCC2)N=C1c1ccc(Br)[nH]1,human liver microsomes,1 µM,,pH 7.4,,-8.35 µL/min/mg
Cc1cc2c(c(=O)[nH]1)C(=O)O/C2=C\c1cc(F)ccc1OCCN1CCOCC1,rat liver microsomes,,,,extrapolated in vivo,117 mL/min
COc1ccc(-c2nc(N)nc(N)c2OCCCOc2ccccc2CCC(=O)O)cc1,human liver microsomes,,,,39.7 mg protein/g liver,< 0.4 mL/min/g liver

# Excerpt of the above:
Compound,sample,concentration,time,pH,notes,intrinsic clearance
C=CC(=O)N1CC2(CCN(c3nc4c(c(-c5c(C)ccc6[nH]ncc56)c3C#N)CCC(C)(C)C4)C2)C1,human liver microsomes,,,,,> 399 µL/min/mg
C[C@@H]1CN(CC(=O)N2CC(C)(C)c3ncc(Cc4ccc(F)cc4)cc32)[C@@H](CN2CCOC[C@H]2C)CN1,"Sprague Dawley rat liver microsomes, male",1 µM,,,,19 µL/min/mg
C#C[C@]1(O)CC[C@H]2[C@@H]3CCc4cc(O)ccc4[C@H]3CC[C@@]21C,human liver microsomes,,,,additional to UGT1A1,119 µL/min/mg
O=C1c2ccccc2CCN1CCCCN1CCN(c2ccccn2)CC1,mouse liver microsomes,0.5 µM,,,,7.7 mL/min/g
